Assay results pooled from the literature.
Lines come from different studies, so protocols differ. Values joined by “and” are separate records of one study, mostly repeats; a detail may differ.
Sequence of UniProt Q16539 (whole entry, looked up): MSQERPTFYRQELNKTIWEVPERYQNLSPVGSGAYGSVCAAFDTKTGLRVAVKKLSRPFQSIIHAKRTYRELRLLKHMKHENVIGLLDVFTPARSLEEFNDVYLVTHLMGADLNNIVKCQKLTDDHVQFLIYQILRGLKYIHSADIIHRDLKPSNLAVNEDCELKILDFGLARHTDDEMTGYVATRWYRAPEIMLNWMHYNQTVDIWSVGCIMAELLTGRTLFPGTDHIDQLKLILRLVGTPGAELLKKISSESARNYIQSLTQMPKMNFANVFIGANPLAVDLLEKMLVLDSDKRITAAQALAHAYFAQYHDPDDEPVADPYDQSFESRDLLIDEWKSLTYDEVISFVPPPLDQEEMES

SMILES	target or system	test	test system	conditions	how to read	quantity	value
CCCN(CCC)CCCNC(=O)C1CCCN(Cc2nc(-c3ccc(Cl)cc3)oc2C)C1 (stereo not shown)	Vero-E6	CellTiter-Glo ATP		concentration not given, 72 h, retest 8-point duplicates	reference: DMSO 0%, hyamine -100%, more negative, more toxic	cytotoxicity efficacy	-17.7%
Cn1cc2cc(C(F)(F)c3nnc4ccc(-c5cnn(C6CC6)c5)nn34)c(F)cc2n1	MKN-45	CCK-8		0.0005 µM, 72 h	reference: untreated	viability	99.2% and 98.9% and 99.1%
Cc1cccc2[nH]cc(CNCC3(N4CCCC4)COC3)c12	HEK			30 µM, 48 h, 10% FBS	reference: DMSO	viability	23.4%
Nc1ncnc2c1ncn2[C@@H]1O[C@@H]2COP(=O)(O)O[C@H]3[C@@H](O)[C@H](n4cnc5c(=O)[nH]cnc54)O[C@@H]3COP(=O)(O)O[C@H]2[C@H]1O	HFF-1			0.1 µg/mL		viability	89%
CC(C)C[C@@H](NC(=O)[C@H](N)CCCCN)C(=O)N1CCC[C@@H]1C(=O)N[C@H](Cc1ccccc1)C(=O)N[C@H](Cc1ccccc1)C(N)=O	NGF-differentiated PC-12 neurons			10 µM, 24 h	reference: untreated	viability	100%
C[C@H]1CN(c2n[nH]c3nc(N[C@H]4CC[C@H](NS(=O)(=O)CCC(F)(F)F)CC4)ncc23)CCO1	MAPK14 (Homo sapiens, UniProt Q16539)	competitor, Kinobeads competition	HEK293, K562, placenta extract			IC50	1200 nM
O=[N+]([O-])c1ccc(-c2nn(-c3ccccc3)c3sc(NC(c4ccccc4O)P(=O)(Oc4ccccc4)Oc4ccccc4)nc23)cc1 (stereo not shown)	BNL mouse liver cells	SRB		100 µM, 10% fetal bovine serum		viability	94.4%
CC(C)C[C@@H](N)C(=O)N1CCC[C@@H]1C(=O)N[C@H](Cc1ccccc1)C(=O)N[C@H](Cc1ccccc1)C(=O)N[C@H](C)C(=O)N[C@H](CCC(=O)O)C(N)=O	NGF-differentiated PC-12 neurons			5 µM, 24 h	reference: untreated	viability	100%
COc1ccc(Nc2nn3c(-c4ccccc4)ccnc3c2C(=O)Nc2ccc(Cl)cc2)cc1	WI-38	MTT	serum-free medium	250.00 µg/mL, 48 h		viability	75.8%
O=C1CCP(=S)(c2ccccc2)CC1	SW-620	trypan blue		IC50, 72 h		viability	98%
CC(C)C[C@@H](NC(=O)[C@H](N)CCCCN)C(=O)N[C@H](CC(C)C)C(=O)N[C@H](Cc1ccccc1)C(=O)N[C@H](Cc1ccccc1)C(=O)N[C@H](C)C(=O)N[C@H](CCC(=O)O)C(N)=O	NGF-differentiated PC-12 neurons			40 µM, 24 h	reference: untreated	viability	99.6%
CC(C)C[C@H](NC(=O)[C@H](C)NC(=O)[C@@H](NC(=O)[C@H](CCCNC(=N)N)NC(=O)[C@H](CC(C)C)NC(=O)[C@H](Cc1c[nH]c2ccccc12)NC(=O)[C@@H]1CCCN1C(=O)[C@@H](N)CCCCN)C(C)C)C(=O)N[C@@H](CS)C(=O)N1CCC[C@H]1C(=O)NCC(=O)O	HEp-2	WST-1		64 µM, 24 h		viability	106% and 99.1% and 101%
COc1ccc(Nc2nn3c(-c4ccccc4)ccnc3c2C(=O)Nc2ccccc2)cc1	WI-38	MTT	serum-free medium	500.00 µg/mL, 48 h		viability	39.5%
CN(C)c1ccc(C(Nc2nc3c(-c4ccc([N+](=O)[O-])cc4)nn(-c4ccccc4)c3s2)P(=O)(Oc2ccccc2)Oc2ccccc2)cc1 (stereo not shown)	BNL mouse liver cells	SRB		0.01 µM, 10% fetal bovine serum		viability	99.8%
CC(C)C[C@@H](NC(=O)[C@H](N)CCCCN)C(=O)N[C@H](CC(C)C)C(=O)N[C@H](Cc1ccccc1)C(N)=O	NGF-differentiated PC-12 neurons			40 µM, 24 h	reference: untreated	viability	98.6%
CCOc1ccc(NC(=O)c2cnn(-c3ccc(C)c(Cl)c3)c2C2CCNCC2)cc1	Vero-E6	CellTiter-Glo ATP		concentration not given, 72 h, retest 8-point duplicates	reference: DMSO 0%, hyamine -100%, more negative, more toxic	cytotoxicity efficacy	-11.4%
